# Measured values of several laboratories.
# Each numbered part is a random draw from the data of one study; scales do not carry over between parts.
# Sequence of UniProt P16591 (whole entry, looked up): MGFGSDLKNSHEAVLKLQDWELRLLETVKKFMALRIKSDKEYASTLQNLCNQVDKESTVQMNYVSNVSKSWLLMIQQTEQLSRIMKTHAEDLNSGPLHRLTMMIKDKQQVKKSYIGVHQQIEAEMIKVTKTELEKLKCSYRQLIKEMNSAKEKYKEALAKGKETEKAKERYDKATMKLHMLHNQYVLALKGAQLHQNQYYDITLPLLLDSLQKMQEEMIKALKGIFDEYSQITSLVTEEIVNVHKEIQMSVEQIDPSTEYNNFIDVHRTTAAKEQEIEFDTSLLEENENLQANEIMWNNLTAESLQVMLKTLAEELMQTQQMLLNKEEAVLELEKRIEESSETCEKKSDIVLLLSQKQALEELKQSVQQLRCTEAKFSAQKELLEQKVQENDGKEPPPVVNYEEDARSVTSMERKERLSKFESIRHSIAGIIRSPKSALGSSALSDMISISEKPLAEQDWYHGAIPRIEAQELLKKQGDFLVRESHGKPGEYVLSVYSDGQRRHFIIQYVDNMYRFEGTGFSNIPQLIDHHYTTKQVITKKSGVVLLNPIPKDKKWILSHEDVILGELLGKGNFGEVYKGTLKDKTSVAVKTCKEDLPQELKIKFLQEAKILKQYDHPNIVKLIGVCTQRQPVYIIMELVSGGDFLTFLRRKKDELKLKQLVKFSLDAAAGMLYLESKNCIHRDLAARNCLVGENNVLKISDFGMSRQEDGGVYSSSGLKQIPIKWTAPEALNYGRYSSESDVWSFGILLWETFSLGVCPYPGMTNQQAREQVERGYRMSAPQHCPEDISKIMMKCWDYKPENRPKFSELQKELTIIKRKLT
# Sequence of UniProt Q14012 (whole entry, looked up): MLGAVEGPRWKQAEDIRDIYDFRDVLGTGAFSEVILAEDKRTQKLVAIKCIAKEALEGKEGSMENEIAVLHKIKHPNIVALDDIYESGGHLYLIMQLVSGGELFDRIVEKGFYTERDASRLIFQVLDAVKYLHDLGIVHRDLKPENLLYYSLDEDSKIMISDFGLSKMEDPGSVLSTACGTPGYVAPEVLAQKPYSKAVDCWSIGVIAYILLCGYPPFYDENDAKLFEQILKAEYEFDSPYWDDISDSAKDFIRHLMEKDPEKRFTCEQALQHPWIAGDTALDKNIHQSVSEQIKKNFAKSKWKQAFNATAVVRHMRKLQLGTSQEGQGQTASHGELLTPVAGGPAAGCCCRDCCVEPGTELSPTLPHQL
# Sequence of UniProt P42679 (whole entry, looked up): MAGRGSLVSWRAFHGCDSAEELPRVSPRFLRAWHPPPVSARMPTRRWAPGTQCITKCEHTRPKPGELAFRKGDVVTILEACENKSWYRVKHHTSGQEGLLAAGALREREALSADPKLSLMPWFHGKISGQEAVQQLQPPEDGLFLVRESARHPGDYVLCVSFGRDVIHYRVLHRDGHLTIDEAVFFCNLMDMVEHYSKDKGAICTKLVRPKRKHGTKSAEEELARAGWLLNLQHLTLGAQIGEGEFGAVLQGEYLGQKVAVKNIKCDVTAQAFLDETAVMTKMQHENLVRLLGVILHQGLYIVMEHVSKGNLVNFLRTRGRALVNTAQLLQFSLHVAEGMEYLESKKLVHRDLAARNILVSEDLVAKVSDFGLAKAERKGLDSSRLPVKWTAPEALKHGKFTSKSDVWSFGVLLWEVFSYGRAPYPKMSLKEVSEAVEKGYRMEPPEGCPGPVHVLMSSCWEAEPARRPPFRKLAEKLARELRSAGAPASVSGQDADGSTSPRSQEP
# Sequence of UniProt P35968 (whole entry, looked up): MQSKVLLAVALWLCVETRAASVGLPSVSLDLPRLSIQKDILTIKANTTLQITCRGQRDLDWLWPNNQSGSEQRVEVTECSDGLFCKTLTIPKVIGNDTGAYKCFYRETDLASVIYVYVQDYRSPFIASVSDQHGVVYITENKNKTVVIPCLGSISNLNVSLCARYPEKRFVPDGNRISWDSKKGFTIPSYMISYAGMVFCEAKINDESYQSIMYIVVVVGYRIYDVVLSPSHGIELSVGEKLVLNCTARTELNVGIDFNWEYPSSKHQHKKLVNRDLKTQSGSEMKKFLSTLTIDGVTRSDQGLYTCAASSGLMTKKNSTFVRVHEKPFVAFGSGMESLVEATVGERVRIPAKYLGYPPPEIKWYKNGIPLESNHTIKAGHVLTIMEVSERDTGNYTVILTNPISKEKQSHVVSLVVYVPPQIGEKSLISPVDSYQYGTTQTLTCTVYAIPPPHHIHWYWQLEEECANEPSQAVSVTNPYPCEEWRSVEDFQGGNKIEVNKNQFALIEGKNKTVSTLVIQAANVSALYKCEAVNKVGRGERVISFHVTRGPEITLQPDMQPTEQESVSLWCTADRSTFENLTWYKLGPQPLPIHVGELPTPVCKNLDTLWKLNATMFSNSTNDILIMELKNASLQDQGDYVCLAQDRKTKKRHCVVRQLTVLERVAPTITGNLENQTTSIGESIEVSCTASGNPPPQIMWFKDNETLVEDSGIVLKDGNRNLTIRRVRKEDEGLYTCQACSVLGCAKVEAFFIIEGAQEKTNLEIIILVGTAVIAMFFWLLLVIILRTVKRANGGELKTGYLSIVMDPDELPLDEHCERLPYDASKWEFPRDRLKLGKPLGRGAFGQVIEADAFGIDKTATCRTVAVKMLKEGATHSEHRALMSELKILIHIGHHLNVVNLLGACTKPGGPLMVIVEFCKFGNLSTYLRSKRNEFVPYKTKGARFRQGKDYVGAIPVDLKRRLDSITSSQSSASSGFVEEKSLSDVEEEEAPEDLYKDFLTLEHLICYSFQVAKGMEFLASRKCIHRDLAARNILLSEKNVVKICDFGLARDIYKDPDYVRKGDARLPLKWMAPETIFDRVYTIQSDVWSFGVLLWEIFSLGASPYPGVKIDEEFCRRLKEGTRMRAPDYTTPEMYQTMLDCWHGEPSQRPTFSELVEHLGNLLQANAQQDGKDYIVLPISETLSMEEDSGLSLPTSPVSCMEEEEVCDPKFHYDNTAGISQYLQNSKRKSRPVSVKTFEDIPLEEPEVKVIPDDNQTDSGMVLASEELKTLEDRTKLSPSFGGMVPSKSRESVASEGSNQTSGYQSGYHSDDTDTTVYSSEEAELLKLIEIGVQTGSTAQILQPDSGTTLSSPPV
# Sequence of UniProt Q9UBE8 (whole entry, looked up): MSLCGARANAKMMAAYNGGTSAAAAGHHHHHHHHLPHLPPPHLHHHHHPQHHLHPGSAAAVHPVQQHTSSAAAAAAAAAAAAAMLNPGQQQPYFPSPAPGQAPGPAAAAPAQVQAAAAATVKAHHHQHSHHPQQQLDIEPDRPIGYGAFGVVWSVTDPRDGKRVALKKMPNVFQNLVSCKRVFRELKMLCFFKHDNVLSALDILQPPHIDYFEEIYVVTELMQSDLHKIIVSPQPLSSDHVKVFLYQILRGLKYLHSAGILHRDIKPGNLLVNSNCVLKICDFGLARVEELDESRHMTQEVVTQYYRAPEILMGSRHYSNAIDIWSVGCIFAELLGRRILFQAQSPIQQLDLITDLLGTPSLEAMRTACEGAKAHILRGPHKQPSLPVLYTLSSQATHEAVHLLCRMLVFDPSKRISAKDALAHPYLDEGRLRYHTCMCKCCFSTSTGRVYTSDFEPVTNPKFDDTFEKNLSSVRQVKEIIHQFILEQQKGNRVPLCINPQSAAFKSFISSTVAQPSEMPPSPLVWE
# Sequence of UniProt Q13153 (whole entry, looked up): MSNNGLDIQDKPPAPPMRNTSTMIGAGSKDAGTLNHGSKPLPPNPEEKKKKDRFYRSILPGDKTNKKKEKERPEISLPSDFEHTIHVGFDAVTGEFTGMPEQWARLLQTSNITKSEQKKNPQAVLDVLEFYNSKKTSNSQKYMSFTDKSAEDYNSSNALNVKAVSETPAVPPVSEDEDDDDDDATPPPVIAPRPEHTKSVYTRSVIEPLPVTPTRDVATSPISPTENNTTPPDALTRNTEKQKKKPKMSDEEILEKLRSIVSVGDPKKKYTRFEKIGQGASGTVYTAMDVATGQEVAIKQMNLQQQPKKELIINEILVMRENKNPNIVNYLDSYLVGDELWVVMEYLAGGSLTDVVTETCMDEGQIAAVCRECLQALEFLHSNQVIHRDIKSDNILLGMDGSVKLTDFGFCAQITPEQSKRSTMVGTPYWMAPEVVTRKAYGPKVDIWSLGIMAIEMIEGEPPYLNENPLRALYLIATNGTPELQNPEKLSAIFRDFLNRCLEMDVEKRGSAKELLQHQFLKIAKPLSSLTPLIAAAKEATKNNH
# Sequence of UniProt Q9HC98 (whole entry, looked up): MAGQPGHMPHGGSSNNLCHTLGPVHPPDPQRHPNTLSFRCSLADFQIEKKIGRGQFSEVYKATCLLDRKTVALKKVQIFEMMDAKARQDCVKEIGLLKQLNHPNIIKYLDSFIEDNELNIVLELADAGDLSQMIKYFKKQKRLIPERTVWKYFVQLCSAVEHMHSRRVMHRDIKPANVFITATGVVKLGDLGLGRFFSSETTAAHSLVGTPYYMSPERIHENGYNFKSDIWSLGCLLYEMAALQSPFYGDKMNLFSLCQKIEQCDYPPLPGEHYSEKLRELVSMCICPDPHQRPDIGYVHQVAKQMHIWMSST

# Set 1 — effect on: enzyme activity; mode: inhibitor; tested at: 0.5 µM; reference: control
# Compound: O=C1NC(=O)c2c1c1c3ccccc3[nH]c1c1[nH]c3cc(Br)ccc3c21
target,remaining activity
"Tyrosine-protein kinase Fer (FER, Homo sapiens, UniProt P16591)",88.9%
"Serine/threonine-protein kinase TAO3 (TAOK3, Homo sapiens, UniProt Q9H2K8)",82.3%
"Tyrosine-protein kinase Fyn (FYN, Homo sapiens, UniProt P06241)",95.2%
"MAP/microtubule affinity-regulating kinase 3 (MARK3, Homo sapiens, UniProt P27448)",57.3%
"Megakaryocyte-associated tyrosine-protein kinase (MATK, Homo sapiens, UniProt P42679)",97.3%
"Tyrosine-protein kinase Fgr (FGR, Homo sapiens, UniProt P09769)",88.8%
"Serine/threonine-protein kinase N1 (PKN1, Homo sapiens, UniProt Q16512)",66%
"LIM domain kinase 1 (LIMK1, Homo sapiens, UniProt P53667)",83.5%
"Serine/threonine-protein kinase NLK (NLK, Homo sapiens, UniProt Q9UBE8)",81.7%
"Serine/threonine-protein kinase MRCK alpha (CDC42BPA, Homo sapiens, UniProt Q5VT25)",97.5%
"Proto-oncogene tyrosine-protein kinase Src (SRC, Homo sapiens, UniProt P12931)",88.9%
"Vascular endothelial growth factor receptor 3 (FLT4, Homo sapiens, UniProt P35916)",28%
"RAC-alpha serine/threonine-protein kinase (AKT1, Homo sapiens, UniProt P31749)",101%
"PAS domain-containing serine/threonine-protein kinase (PASK, Homo sapiens, UniProt Q96RG2)",86.3%
"cAMP-dependent protein kinase catalytic subunit PRKX (PRKX, Homo sapiens, UniProt P51817)",85.1%
"Serine/threonine-protein kinase Nek11 (NEK11, Homo sapiens, UniProt Q8NG66)",109%
"Serine/threonine-protein kinase 25 (STK25, Homo sapiens, UniProt O00506)",84.4%
"Homeodomain-interacting protein kinase 1 (HIPK1, Homo sapiens, UniProt Q86Z02)",98.2%
"ALK tyrosine kinase receptor (ALK, Homo sapiens, UniProt Q9UM73)",94%
"Insulin receptor (INSR, Homo sapiens, UniProt P06213)",86.4%
"Cyclin-dependent kinase 3, with cyclin E (CDK3, Homo sapiens, UniProt Q00526)",88.1%
"Tyrosine-protein kinase ITK/TSK (ITK, Homo sapiens, UniProt Q08881)",84.1%

# Set 2 — tested at: 1 µM
# SMILES: CN(C(=O)c1ccccc1)c1cc(N(C)c2ccc3c(c2)CCc2ccc(C(=O)NCCN4CCOCC4)cc2C3=O)ccc1F
target,test,remaining binding [%]
"Vascular endothelial growth factor receptor 2 (KDR, Homo sapiens, UniProt P35968)","cell-free assay, competition with immobilised ligand",81
"Mast/stem cell growth factor receptor Kit (KIT, Homo sapiens, UniProt P10721, D816H)","cell-free assay, competition with immobilised ligand",100
"Serine/threonine-protein kinase TNNI3K (TNNI3K, Homo sapiens, UniProt Q59H18)","cell-free assay, competition with immobilised ligand",54
"Serine/threonine-protein kinase Nek6 (NEK6, Homo sapiens, UniProt Q9HC98)","cell-free assay, competition with immobilised ligand",91
"Activin receptor type-2A (ACVR2A, Homo sapiens, UniProt P27037)","cell-free assay, competition with immobilised ligand",100
"Serine/threonine-protein kinase PAK 1 (PAK1, Homo sapiens, UniProt Q13153)","cell-free assay, competition with immobilised ligand",88
"Insulin receptor-related protein (INSRR, Homo sapiens, UniProt P14616)","cell-free assay, competition with immobilised ligand",100
"Serine/threonine-protein kinase SIK1 (SIK1, Homo sapiens, UniProt P57059)",competition binding,100
"Receptor-type tyrosine-protein kinase FLT3 (FLT3, Homo sapiens, UniProt P36888, ITD)","cell-free assay, competition with immobilised ligand",84
"Calcium/calmodulin-dependent protein kinase type 1 (CAMK1, Homo sapiens, UniProt Q14012)","cell-free assay, competition with immobilised ligand",93
"Cyclin-dependent kinase 11A (CDK11A, Homo sapiens, UniProt Q9UQ88)","binding, competition with immobilised ligand",95
"Tyrosine-protein kinase Fer (FER, Homo sapiens, UniProt P16591)","cell-free assay, competition with immobilised ligand",99
"Dual specificity protein kinase CLK2 (CLK2, Homo sapiens, UniProt P49760)","cell-free assay, competition with immobilised ligand",86
"Serine/threonine-protein kinase RIO3 (RIOK3, Homo sapiens, UniProt O14730)","cell-free assay, competition with immobilised ligand",95
"STE20/SPS1-related proline-alanine-rich protein kinase (STK39, Homo sapiens, UniProt Q9UEW8)","cell-free assay, competition with immobilised ligand",100
"Epidermal growth factor receptor (EGFR, Homo sapiens, UniProt P00533, del747-752/P753S)","cell-free assay, competition with immobilised ligand",72
"Calcium/calmodulin-dependent protein kinase type II subunit delta (CAMK2D, Homo sapiens, UniProt Q13557)","cell-free assay, competition with immobilised ligand",100
"Phosphatidylinositol 3-kinase catalytic subunit type 3 (PIK3C3, Homo sapiens, UniProt Q8NEB9)","cell-free assay, competition with immobilised ligand",100
"Receptor-type tyrosine-protein kinase FLT3 (FLT3, Homo sapiens, UniProt P36888, K663Q)","cell-free assay, competition with immobilised ligand",89
"Receptor-type tyrosine-protein kinase FLT3 (FLT3, Homo sapiens, UniProt P36888)","cell-free assay, competition with immobilised ligand",86
"Cyclin-dependent kinase 15 (CDK15, Homo sapiens, UniProt Q96Q40)","cell-free assay, competition with immobilised ligand",76
"Serine/threonine-protein kinase DCLK2 (DCLK2, Homo sapiens, UniProt Q8N568)","cell-free assay, competition with immobilised ligand",100
"Calcium/calmodulin-dependent protein kinase kinase 2 (CAMKK2, Homo sapiens, UniProt Q96RR4)","cell-free assay, competition with immobilised ligand",92

# Set 3 — mode: agonist
# Target: Beta-1 adrenergic receptor (ADRB1, Homo sapiens, UniProt P08588)
# Sequence of UniProt P08588 (whole entry, looked up): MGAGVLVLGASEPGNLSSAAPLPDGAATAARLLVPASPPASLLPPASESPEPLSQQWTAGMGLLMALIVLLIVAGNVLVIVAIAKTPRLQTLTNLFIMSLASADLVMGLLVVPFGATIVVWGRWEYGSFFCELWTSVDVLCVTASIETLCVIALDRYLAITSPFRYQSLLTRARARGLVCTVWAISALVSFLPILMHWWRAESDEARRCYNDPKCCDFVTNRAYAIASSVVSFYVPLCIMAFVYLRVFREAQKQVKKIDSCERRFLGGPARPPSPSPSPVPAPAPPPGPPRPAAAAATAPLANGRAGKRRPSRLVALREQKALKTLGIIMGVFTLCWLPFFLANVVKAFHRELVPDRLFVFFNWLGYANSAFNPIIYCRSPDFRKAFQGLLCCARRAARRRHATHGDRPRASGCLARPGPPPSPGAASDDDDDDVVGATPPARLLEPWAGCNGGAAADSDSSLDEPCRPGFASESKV
SMILES,EC50 [µM]
O=C(Nc1ccc(Oc2ccnc3[nH]ccc23)c(F)c1)c1cccn(-c2ccc(F)cc2)c1=O,≥ 100
CCN(CC)c1ccc2c(c1)OC(=O)/C(=C\Nc1ccc(CC(=O)O)c(-c3c4c(nc5ccccc35)CCC(C(=O)NN)C4)c1)C2=O (centres unmarked),≥ 100
CC1CCCN1C(=O)c1cc(-c2cnn(C(C)C)c2)nc2cc(F)ccc12 (centres unmarked),≥ 100
Brc1ccc(-c2noc(-c3c[nH]nc3-c3ccccc3)n2)cc1,≥ 100
COc1ccccc1N1CCN(C(C)C(=O)NC2CCC(C)CC2)CC1 (centres unmarked),≥ 100
CN(c1cc(=O)c2ccnc(Nc3ccn(C)n3)c2o1)C1CCOCC1,≥ 100
COc1ccccc1-c1nnc(SCc2cc(=O)oc3cc(O)ccc23)n1C,≥ 100
CCCc1cc(=O)n2nc(N(CC)Cc3cnn(C)c3)sc2n1,≥ 100
CC#CCn1cc2c3c(cccc31)[C@H](CC(C)C)N[C@H](C(=O)NCCN1CCOCC1)C2,≥ 100
C=CCN1CCN(Cc2cccc(OCC(O)CN(C)C3CCCCC3)c2)CC1 (centres unmarked),≥ 100

# Mixed results
Structure (SMILES),system,conditions,measurement,result
CC(C)n1cnc(-c2ccc(F)cc2)c1-c1ncc(C(=O)Nc2ccc(N3CCN(C)CC3)cc2)[nH]1,IPF patients,"30 mg once daily, adverse event incidence",blood urea increased,0%

# A few entries again (set 2):
target,test,remaining binding [%]
"Activin receptor type-2A (ACVR2A, Homo sapiens, UniProt P27037)","cell-free assay, competition with immobilised ligand",100
"Cyclin-dependent kinase 15 (CDK15, Homo sapiens, UniProt Q96Q40)","cell-free assay, competition with immobilised ligand",76
"Calcium/calmodulin-dependent protein kinase type 1 (CAMK1, Homo sapiens, UniProt Q14012)","cell-free assay, competition with immobilised ligand",93
